Published values collected from several papers.
Every numbered part comes from another study and shows a few of its results, in no order. Changes are numbered by the printed parent chain.

Sample 1
Target: Histone acetyltransferase KAT6A, winged helix 1, GST fusion (KAT6A, Homo sapiens, UniProt Q92794, residues 1-85)
Method: protein binding microarray
Form: double-stranded DNA, one strand shown
Medium: in vitro
Tested at: not given
Setting: 8-mer, flanks averaged, mean of 2 arrays, mostly near background
Reference: not given
Direction: higher = stronger binding
Construct (chain): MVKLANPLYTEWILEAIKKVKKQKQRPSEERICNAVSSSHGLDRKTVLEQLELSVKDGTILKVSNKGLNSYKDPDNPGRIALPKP
| Oligonucleotide | E-score |
| --- | --- |
| CAACTTCC | -0.0965 |
| AGCTAATA | -0.159 |
| CAGCGCTC | 0.224 |
| ACTTGCCT | -0.239 |
| ATTGTGCA | -0.142 |
| AGCTAGGC | 0.0315 |
| ACTAGCCT | -0.0827 |
| AAATAAGC | -0.112 |
| ACTTGTAA | -0.00136 |
| CCATTCCA | -0.0677 |
| ACAAGAAT | -0.184 |
| CTGGAGTA | -0.0755 |
| AGTCGTCA | -0.21 |
| AAAAAATG | -0.183 |
| GTCCAGAC | -0.102 |
| GGATCGCA | 0.00281 |
| GACTTAAC | 0.0253 |
| ATGGCTAG | -0.1 |
| AGTAGATA | -0.0213 |
| ATCTATGC | -0.0671 |
| AAAAGATC | -0.162 |

Sample 2
Molecule: PhoQ, residues 284 288 289 292 302 303 AAQSYM
Method: Sort-seq
Item: YFP reporter
Medium: E. coli
Setting: PhoQ-PhoP variant library
Together with: 10 µM Mg2+
Reference: high Mg2+ state
Direction: higher = stronger signaling
| target | fold induction |
| --- | --- |
| PhoP, residues 12 14 15 18 19 VHTVL (Escherichia coli, UniProt P23836) | 17 |
| PhoP, residues 12 14 15 18 19 ICWRQ (Escherichia coli, UniProt P23836) | 1.34 |
| PhoP, residues 12 14 15 18 19 TQCLL (Escherichia coli, UniProt P23836) | 5.06 |

Sample 3
Target: CCNB1, cyclin fold, Cln2 fusion (human)
Method: yeast growth competition, sequencing
Medium: yeast
Setting: weak parent motif
Reference: not given
Direction: higher = stronger binding
Starting sequence: SCAPER docking peptide (human); SNARRSLNFGGST
| Substitution | normalised enrichment score |
| --- | --- |
| F9M | 0.715 |
| N2H | 0.354 |
| G10Q | 0.0469 |
| S6Y | 0.248 |
| N2V | 0.683 |
| R4E | -0.124 |
| N2A | 0.856 |
| N8Q | 0.32 |
| R4N | 0.486 |
| F9L | 0.173 |
| S1T | 0.689 |
| S6N | 0.0237 |
| N8L | 0.0689 |
| S12P | 0.466 |
| R4F | -0.474 |
| S6A | 0.909 |
| R5Y | 0.251 |
| N2F | 1.15 |
| L7G | 0.0891 |
| T13P | 0.572 |

Sample 4
Target: Fragile X messenger ribonucleoprotein 1, C-terminal low-complexity region (Fmr1, Mus musculus, UniProt P35922)
Method: RNA Bind-n-Seq
Form: RNA
Medium: in vitro
Tested at: 200 nM
Setting: whole 134-nt RNA, ends assumed
Together with: 150 mM LiCl
Reference: input library
Direction: higher = stronger binding
Each molecule: 7-deaza-guanosine replaces G
Shared flanks, not repeated: GGGAGUUCUACAGUCCGACGAUC … UGGAAUUCUCGGGUGUCAAGG
| Oligonucleotide | log2 enrichment |
| --- | --- |
| GUCCUGUGCUACACAUCGUAUGUACCGAAUCAAAUUUUUUUAAACCCAAACCCCCAAAAAAGUAUUAUGUUACGCCGUUCGGAUCUGCAC | 0.895 |
| CACAGACAACGCGCACCCACACAGACACAGAGGGAAGGGGUUGGGAUGGGGACAGGGUGCACAGCAGGGCGGGGUAGGACCCCAGCCCCU | -0.858 |
| UGUGCUACACAUCGUAUGUACCGAAUCGGGGCCCCCCCGGGGCCCCCCCGGGCCCCCCCGGGGAAAGUAUUAUGUUACGCCGUUCGGAUC | -2.06 |
| GUCCUGUGCUACACAUCGUAUGUACCGAAUCGGGUUUUUGGGUUUUUGGGAAAAAGGGAAAGUAUUAUGUUACGCCGUUCGGAUCUGCAC | -1.12 |
| CAAGUCCUGUGCUACACAUCGUAUGUACCGAAUCGGGAAAAAGGGAGGGUUUGGGAAAGUAUUAUGUUACGCCGUUCGGAUCUGCACUUC | -1.21 |
| UGGCCCUGGUGGCAUGCGGGGAGGAAGAGGUGGCCUCAUGGAUCGUGGUUGUCCCGGUGGAAUGUUCAGAGGUGGCCGUGGUGGAGACAG | -0.000937 |
| UGGCCCUGGUGGCAUGCGGGGAGGAAGAGGUGGCCUCAUGGAUCGUGGUGGUCCCGGUGGAAUGUUCAGAGGUGUCCGUGGUGGAGACAG | 0.0609 |
| CUGUGCUACACAUCGUAUGUACCGAAUCGGGGUUUUUUUGGGGAAAGGGGAAAAAAAGGGGAAAGUAUUAUGUUACGCCGUUCGGAUCUG | -0.854 |
| GUCCUGUGCUACACAUCGUAUGUACCGAAUCGGGGAAAAAGGGAAAAAGGGAAAAAGGAAAGUAUUAUGUUACGCCGUUCGGAUCUGCAC | 0.168 |
| AAGUCCUGUGCUACACAUCGUAUGUACCGAAUCAAAUUUUUAAAUUUAAAUUUAAAAAAGUAUUAUGUUACGCCGUUCGGAUCUGCACUU | -3.39 |
| ACCAUGCAGGUGGGCAUCUUUCGGAAGUGGGGCAAGGGGGGGAUAGGGAGGGGGGUAACACUUUGGGAACAGGUGGUCCCAGGUCGUUUC | 1.26 |

Sample 5
Target: Interferon regulatory factor 7, full length, phosphomimetic (IRF7, Homo sapiens, UniProt Q92985, residues 1-503, S101K/S471D/S472D/S475D/S476D/S477D/S483D/S484D/S487D)
Chain of UniProt Q92985 (whole entry, unmodified, looked up): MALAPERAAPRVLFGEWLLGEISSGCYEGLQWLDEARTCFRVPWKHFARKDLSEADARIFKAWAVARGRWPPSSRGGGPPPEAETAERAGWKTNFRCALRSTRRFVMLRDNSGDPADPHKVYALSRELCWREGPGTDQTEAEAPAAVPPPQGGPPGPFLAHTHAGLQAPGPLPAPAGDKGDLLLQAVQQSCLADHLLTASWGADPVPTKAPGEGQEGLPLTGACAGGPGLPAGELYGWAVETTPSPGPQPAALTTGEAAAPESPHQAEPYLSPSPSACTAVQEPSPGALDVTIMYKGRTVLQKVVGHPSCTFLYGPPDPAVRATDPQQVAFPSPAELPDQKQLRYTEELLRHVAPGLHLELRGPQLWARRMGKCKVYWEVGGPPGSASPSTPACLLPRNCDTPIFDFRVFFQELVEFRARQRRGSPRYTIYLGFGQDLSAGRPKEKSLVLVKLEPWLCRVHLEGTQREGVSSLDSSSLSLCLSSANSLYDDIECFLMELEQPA
Method: protein-binding microarray
Form: double-stranded DNA, one strand shown
Medium: in vitro
Tested at: 250 nM
Setting: 60-bp whole probe
Together with: salmon DNA 0.4 mg/ml
Reference: random background probes
Direction: higher = stronger binding
Shared flanks, not repeated: GCCTAGCAC … GTCTTGATTCGCTTGACGCTGCTG
| Oligonucleotide | log fluorescence [z-score] |
| --- | --- |
| GACGAACTGGGGTATCGACACGTGCTA | -0.717 |
| TGACAGCAGGAACATGGGCTGTGCTAG | -0.864 |
| GCCGGTATCCTTTTCCTGACGTGCTAG | 1.21 |
| GACGGAATGGGTTTCGGGACGTGCTAG | 2.59 |
| TTAGCACTGGGGACTGGATTAGTGCTA | -0.551 |
| TTACGTCTCCTTATCCTTTAGTGCTAG | 0.611 |
| GGGAAAATGGCTTTGCAGATGTGCTAG | -0.603 |
| TTTGAACTGAGTCTCGATTAGTGCTAG | 1.03 |
| ACTGATTTCCACTTTCTTAAGTGCTAG | 1.64 |
| GAGGGTTCCCTTTTCCTGACGTGCTAG | 2.3 |
| TTAGGACTGGACACTGGTTTAGTGCTA | -0.274 |
| TAAGGTATCGGACTGGGTTAGTGCTAG | 0.044 |
| GACGATATCGGGTAACGAGACGTGCTA | -0.253 |
| TACGATATCAGTCTCGAGACGTGCTAG | 0.735 |
| TTAGGTATCGACTTTCAGTTAGTGCTA | 1.57 |
| GTAGGTTTCGGGTTTCGGTTAGTGCTA | 12 |
| TCAAGTTGGACCTCTCAGACTGTGCTA | -0.193 |
| GACGATATCATTATCGAGACGTGCTAG | 0.0168 |
| TCATATATGTATATATGACTGTGCTAG | 0.645 |

Sample 6
Target: ABI1, truncated, D143A, DHFR fusion (Arabidopsis thaliana)
Method: DHFR PCA, deep sequencing
Medium: yeast
Setting: methotrexate growth selection, single substitutions
Together with: (+)-ABA 4.8 µM
Reference: wild-type fitted maximum
Direction: higher = stronger binding
Starting sequence: PYL1, truncated, DHFR fusion (Arabidopsis thaliana); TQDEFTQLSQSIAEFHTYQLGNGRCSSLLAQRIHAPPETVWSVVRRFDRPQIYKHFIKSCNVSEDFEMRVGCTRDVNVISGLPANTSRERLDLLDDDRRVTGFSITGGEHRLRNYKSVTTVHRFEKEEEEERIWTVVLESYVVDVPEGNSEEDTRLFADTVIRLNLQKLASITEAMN; partner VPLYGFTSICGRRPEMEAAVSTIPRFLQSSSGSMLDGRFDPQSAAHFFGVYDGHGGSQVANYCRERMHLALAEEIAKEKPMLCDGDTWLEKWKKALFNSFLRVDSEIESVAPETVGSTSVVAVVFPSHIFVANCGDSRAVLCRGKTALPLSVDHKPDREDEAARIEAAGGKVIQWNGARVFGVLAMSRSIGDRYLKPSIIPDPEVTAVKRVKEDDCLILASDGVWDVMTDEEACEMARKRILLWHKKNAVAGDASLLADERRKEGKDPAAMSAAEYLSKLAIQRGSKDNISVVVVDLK
| Substitution | relative binding score |
| --- | --- |
| L156P | -1.06% |
| D159P | -5.13% |
| I162G | -9.69% |
| V136Y | 46.4% |
| C25P | 0.626% |
| D97I | 52.8% |
| W134T | 91.4% |
| R46D | 7.42% |
| G81K | -8.3% |
| R90T | 45.8% |
| I172N | 17.1% |
| R113K | 88% |
| R132W | 38.2% |
| I33R | 4.69% |
| V121G | -2.2% |
| D153C | -0.738% |

For quick reference, copied from above (sample 1):
| Oligonucleotide | E-score |
| --- | --- |
| AGCTAGGC | 0.0315 |
| ACTAGCCT | -0.0827 |
| AAATAAGC | -0.112 |
| ACTTGTAA | -0.00136 |
| CCATTCCA | -0.0677 |
| ACAAGAAT | -0.184 |
| CTGGAGTA | -0.0755 |
| AGTCGTCA | -0.21 |
| AAAAAATG | -0.183 |
| GTCCAGAC | -0.102 |
| GGATCGCA | 0.00281 |
| GACTTAAC | 0.0253 |
| ATGGCTAG | -0.1 |
| AGTAGATA | -0.0213 |
| ATCTATGC | -0.0671 |
